Assay results of several laboratories.
Compare with care: the assays were run in different laboratories. Values joined by “and” are separate records of one study, mostly repeats; a detail may differ. Numbers after ± are the reported error.

SMILES	assay	system	setting	scale	measurement	value
O=C([O-])CN1CCN(CC(=O)[O-])CCN(C(CO)C(O)CO)CCN(CC(=O)[O-])CC1.[Dy+3] (stereo not drawn)	ICP-MS	cynomolgus monkey	8 h, MB study group	baseline: dose	cumulative urinary excretion	83%
COc1ccc2nc(NC(=O)c3ccc(C(N)c4ccccc4)cc3)sc2c1 (stereo not drawn)	–	CD-1 mice, female, plasma	10 mg/kg	–	terminal half-life	4.03 h
O=S(=O)(N[C@H]1CCO[C@@H](C2c3ccccc3CCc3ccccc32)C1)c1ccc(OC(F)(F)F)cc1	–	mouse	oral, 30 mg/kg, 2 h	baseline: brain over plasma	tissue/plasma ratio	1.3
CC[C@H](C)[C@H](NC(=O)CNC(=O)[C@H](C)NC(=O)[C@H](CC(=O)O)NC(=O)[C@H](CO)NC(=O)[C@H](C)NC(=O)[C@H](CC(C)C)NC(=O)[C@H](CCCCN)NC(=O)[C@H](CCCCN)NC(=O)[C@H](CCSC)NC(=O)[C@H](CC(N)=O)NC(=O)[C@H](Cc1ccccc1)NC(=O)[C@H](CC(=O)O)NC(=O)[C@@H](N)CCSC)C(=O)N[C@@H](Cc1c[nH]c2ccccc12)C(=O)N[C@@H](Cc1ccccc1)C(=O)N[C@H](C(=O)N[C@@H](CCCNC(=N)N)C(=O)N[C@@H](C)C(=O)N[C@H](C(=O)N[C@@H](CCC(N)=O)C(=O)N[C@@H](Cc1ccccc1)C(=O)N[C@H](C(=O)N[C@@H](CCC(=O)O)C(=O)N[C@@H](CCC(=O)O)C(=O)N[C@@H](CCCCN)C(=O)N[C@@H](Cc1ccccc1)C(=O)NCC(=O)N[C@@H](CCC(N)=O)C(=O)N[C@@H](C)C(N)=O)[C@@H](C)O)C(C)C)[C@@H](C)O	circular dichroism	100% DOPS liposomes	1 mM lipid	–	helical content	36%
CC[C@H](C)[C@H](NC(=O)[C@H](CCCCN)NC(C)=O)C(=O)N[C@@H](C)C(=O)N[C@@H](C)C(=O)N[C@@H](CC(C)C)C(=O)N[C@@H](CCCCN)C(=O)N[C@@H](CCC(=O)O)C(=O)N[C@@H](CCCCN)C(=O)N[C@H](C(=O)N[C@@H](C)C(=O)N[C@@H](C)C(=O)N[C@@H](CC(C)C)C(=O)N[C@@H](CCCCN)C(=O)N[C@@H](CCC(=O)O)C(=O)N[C@@H](CCCCN)C(=O)N[C@H](C(=O)N[C@H]1CSCc2ccccc2CSC[C@@H](C(=O)NCC(=O)N[C@@H](Cc2c[nH]c3ccccc23)C(N)=O)NC(=O)[C@H](CCCCN)NC(=O)[C@H](CC(C)C)NC(=O)[C@H](C)NC1=O)[C@@H](C)CC)[C@@H](C)CC	circular dichroism at 222 nm	PBS	pH 7.4, 20 °C, single peptide 50 µM total	–	helicity	75%
CNCc1ccc(-c2cc(=O)c3ccc4[nH]c(C(F)(F)F)nc4c3o2)cc1	–	ICR mice, brain	intravenous, 2 mg/kg	–	AUC	84.3 ng·h/mL
COc1ccc(C(=O)c2c(C(=O)NCCCN(C)C)oc3ccc(Cl)cc3c2=O)cc1OC	–	male C57BL/6 mice, brain	intravenous, 1 mg/kg	–	AUC extrapolated fraction	10%
C=CC(=O)Nc1cccc(Cn2ncc3cnc(Nc4cnn(CCOC)c4)nc32)c1	–	human, both sexes, whole blood	5 µM, 30 min	–	remaining compound	90.4%
C=C[C@]1(C)C[C@@H](OC(=O)CSc2ccc(NC(=O)c3ccco3)cc2)[C@]2(C)[C@H](C)CC[C@]3(CCC(=O)[C@H]32)[C@@H](C)[C@@H]1O	–	chicken, Mycoplasmoides gallisepticum infected, plasma	intramuscular, 80 mg/kg	–	V1/F	6.34 L/kg
CCCCN1C(=O)c2cccc3c(NCCCCCCN4CCOCC4)ccc(c23)C1=O	–	methanol	–	–	fluorescence lifetime	8.4 ns
CCCCC/C=C\CCCO[Si](CCCN(C)C)(OCCC/C=C\CCCCC)OCCC/C=C\CCCCC	–	–	pH 5.5, formulated	–	zeta potential	2.72 mV
O=C(Nc1cnccc1-c1ccc([18F])nc1)c1ccnc(NC(=O)C2CC2)c1	–	FVB/NJ mouse, both sexes, brain	intravenous, 20 min	–	SUV	0.079
N#CC(C#N)=NNc1ccc(-c2ccc(F)cc2F)cc1	1H NMR titration	aqueous ATPase buffer	1% DMSO	–	solubility limit	> 250 µM
COc1cccc(OC)c1-c1cc(C(=O)NC2(C(=O)O)C3CC4CC(C3)CC2C4)nn1-c1ccc(C(=O)N(C)CCCN(C)CCCN(C)C(=O)[C@H](CCCCNC(=O)[C@H](CC(C)C)NC(=O)C2OC2C(=O)O)NC(=O)CN2CCN(CC(=O)[O-])CCN(CC(=O)[O-])CCN(CC(=O)[O-])CC2)cc1C(C)C.[177Lu+3] (mixture of isomers)	–	mouse HT-29 xenograft	72 h, biodistribution	baseline: tumour over small intestine	tumour-to-small intestine ratio	26
CCn1nc(Cl)c2c1-c1cnc(N)c(c1)O[C@H](C)c1cc(F)ccc1-c1nn(C)cc1C2	–	Balb/c nude mouse, female, plasma	0.2 mg/kg twice daily for 5 days, 1 h	–	free plasma concentration	2.1 nM
COc1cccc(OC)c1-c1cc(C(=O)NC2(C(=O)O)C3CC4CC(C3)CC2C4)nn1-c1ccc(C(=O)N(C)CCOCCOCCN(C)C(=O)[C@H](CCCCNC(=O)[C@H](CC(C)C)NC(=O)C2OC2C(=O)O)NC(=O)CN2CCN(CC(=O)[O-])CCN(CC(=O)[O-])CCN(CC(=O)[O-])CC2)cc1C(C)C.[177Lu+3] (mixture of isomers)	–	mouse, HT-29 xenograft	168 h post injection, biodistribution	baseline: tumour over lung uptake	tumour-to-lung ratio	1.65
C=C(NC(=O)c1csc(-c2nc3c(cc2O)-c2nc(cs2)C(=O)NC(C(C)O)C(=O)NC(=C(C)OC)c2nc(cs2)C(=O)NC2c4nc(cs4)C(=O)NC(COC(=O)c4c5c6c(cccc6n4O)COC(=O)C(OC4CC(C)(O)C(N(C)C)C(C)O4)C2OC5)c2nc-3cs2)n1)C(N)=O (stereo not drawn)	–	cynomolgus monkey, male, plasma	intravenous infusion, 1.5 mg/kg twice daily, 0 to 30 h	–	half-life	5.2 h
CCC(=O)N(C)c1ccc(Cl)c(Cl)c1	LC-MS/MS	mouse C57BL/6 female, plasma	oral, 10 mg/kg, 1 h	–	plasma concentration	61.4 ng/mL and 57.4 ng/mL

SMILES	assay	system	setting	scale	measurement	value
COc1cccc(OC)c1-c1cc(C(=O)NC2(C(=O)O)C3CC4CC(C3)CC2C4)nn1-c1ccc(C(=O)N(C)CCCN(C)C(=O)[C@H](CCCCNC(=O)[C@H](CC(C)C)NC(=O)C2OC2C(=O)O)NC(=O)CN2CCN(CC(=O)[O-])CCN(CC(=O)[O-])CCN(CC(=O)[O-])CC2)cc1C(C)C.[177Lu+3] (mixture of isomers)	–	mouse HT-29 xenograft	4 h, biodistribution	baseline: tumour over small intestine	tumour-to-small intestine ratio	13.8
CC(C)(C)C(=O)Nc1ccc2[nH]c(CN3CCC(N(CCCN4CCOCC4)CC4OC(n5cnc6c(N)ncnc65)C(O)C4O)CC3)nc2c1 (stereo not drawn)	–	male Sprague-Dawley rat, plasma	intravenous, 20 mg/kg, 15 min	–	concentration	2440 ng/mL
C=CC[C@@H]1/C=C(\C)C[C@H](C)C[C@H](OC)[C@H]2O[C@@](O)(C(=O)C(=O)N3CCCC[C@H]3C(=O)O[C@H](/C(C)=C/[C@@H]3CC[C@@H](O)[C@H](OC)C3)[C@H](C)[C@@H](O)CC1=O)[C@H](C)C[C@@H]2OC	–	kidney transplant recipients, CYP3A5 *1/*1 and *1/*3, whole blood	oral, dose not given, early and late phases, limited sampling	–	dose-normalized AUC(0-12h)	94 ng·h/mL
C=CC(=O)Nc1cc(Nc2nccc(-c3cn(C)c4ccccc34)n2)c(OC)cc1N(C)CCNC	storage stability	human dried blood spot	2 h, -80 °C, LLOQ level	–	recovery	100%
C/C(N)=N/C(=N\S(=O)(=O)c1ccc(C(F)(F)F)cc1)N1C[C@H](c2ccccc2)C(c2ccc(Cl)cc2)=N1	–	male C57BL/6 mouse, kidney	intravenous, 10 mg/kg	–	half-life	2.7 h
O=[11C](OC(C(F)(F)F)C(F)(F)F)N1CCC(CNS(=O)(=O)c2ccc(Cl)cc2)CC1	–	Sprague-Dawley rat, plasma	iv, dose not given, 30 min	–	unchanged tracer	7%
COc1cccc(OC)c1-c1cc(C(=O)NC2(C(=O)O)C3CC4CC(C3)CC2C4)nn1-c1ccc(C(=O)NCCNC(=O)[C@H](CCCCNC(=O)[C@H](CC(C)C)NC(=O)C2OC2C(=O)O)NC(=O)CN2CCN(CC(=O)[O-])CCN(CC(=O)[O-])CCN(CC(=O)[O-])CC2)cc1C(C)C.[177Lu+3] (mixture of isomers)	–	mouse, HT-29 xenograft	168 h post injection, biodistribution	baseline: tumour over lung uptake	tumour-to-lung ratio	2.83
CC(=O)N([O-])CCCCCNC(=O)CCC(=O)N([O-])CCCCCNC(=O)CCC(=O)N([O-])CCCCCN.[89Zr+4]	radio-TLC	aqueous buffer	3 d, pH 5, 37 °C, 89Zr-labelled complex, with: DTPA 1000-fold excess	–	intact complex	79.8 ± 2.9%
CC[C@H](C)[C@@H]1NC(=O)[C@H](Cc2ccc(O)cc2)NC(=O)CCCSC[C@@H](C(=O)N(CC(=O)N[C@@H](CC(C)C)C(=O)NCC(N)=O)Cc2ccc(F)cc2)NC(=O)[C@H](CC(N)=O)NC(=O)[C@H](CCC(N)=O)NC1=O	–	human	intranasal, 5 µg single dose	–	subjects with any TEAE	50%
CC(C)(O)c1ncc([S@](N)(=O)=NC(=O)Nc2c3c(cc4c2CCC4)CCC3)s1	measured: general and administration-site disorders	healthy human volunteers	oral, 25 mg twice daily, 14 days, enteric-coated tablet	–	subjects with adverse events	38%
O=C1NCC(COc2cccc3c(NCc4ccccc4)nc(Cl)nc23)O1 (stereo not drawn)	–	C57BL/6 mouse, heart	oral, 30 mg/kg, 0.5 h	baseline: heart over plasma	tissue/plasma ratio	< 0.145
Cc1nc(N)nc2c1C(=O)N[C@@H](c1ccc(F)cc1-c1cccc(O[11CH3])n1)C2	ex vivo biodistribution	mice, U87 subcutaneous xenograft, pancreas	60 min post-injection, baseline, vehicle pre-treatment	–	SUV	2.7 ± 0.1
O=C(Oc1ccccc1)c1ccc(O)cc1	–	empty Transwells without cells	5 µM, 60 min, apical to basolateral	–	mass balance	38%
O=C(O)CCCOc1ccc([18F])cc1-c1cc(-c2ccccc2C(F)(F)F)n(-c2ccccc2)n1	OLINDA/EXM from mouse data, measured: Upper large intestine wall	human adult	–	–	absorbed dose	14.8 µGy/MBq
Cc1noc(C)c1Cn1cc(N2C(=O)CN(Cc3cccc(OS(=O)(=O)O)c3)C2=O)cn1	–	Sprague-Dawley rat, male	oral, 100 mg/kg of parent drug, 24 h	–	plasma concentration	324 ng/mL
O=C(Nc1cnccc1-c1ccc([18F])cc1)c1ccnc(NC(=O)C2CC2)c1	–	FVB/NJ mouse, both sexes, brain	intravenous, 30 min	–	SUV	0.19
O=C1NN(c2ccccc2)C(=O)C1=Cc1ccc(OCCC[18F])c2ccccc12	radio-HPLC	Wistar rat, female	intravenous, 15 min	–	intact tracer in plasma	~17%
C=CC(=O)Nc1cc(Nc2nccc(-c3c[nH]c4ccccc34)n2)c(OC)cc1N(C)CCN(C)C	storage stability	human plasma	24 h, on ice, LLOQ level	–	recovery	86.8%
